Experimental data pooled from the literature.
Numbered parts are unrelated; each lists some results of a single study. Changes are numbered by the printed parent chain.

Series 1
Target: Histone acetyltransferase KAT6A, winged helix 2, GST fusion (KAT6A, Homo sapiens, UniProt Q92794, residues 85-181)
Method: protein binding microarray
Molecule type: double-stranded DNA, one strand shown
Medium: in vitro
Concentration: not given
Setting: 8-mer, flanks averaged, mean of 2 arrays, mostly near background
Baseline: not given
Reading: higher = stronger binding
Residues (chain): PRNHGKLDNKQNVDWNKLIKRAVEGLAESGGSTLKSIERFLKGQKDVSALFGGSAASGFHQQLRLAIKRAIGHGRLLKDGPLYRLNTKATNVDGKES
`CCTCAACG` gave an E-score of -0.0784.
For `GTAGCCGA`, the E-score was 0.0442.
For `CCCGCGCC`, the E-score was 0.239.
`ACTGTTTA` has an E-score of -0.024.
The E-score of `AAGCAACC` is reported as 0.125.
For `GTTGCCCA`, the E-score was 0.0527.
`AGAGAAGG` gave an E-score of 0.0105.
`ACCCAGCG` gave an E-score of 0.0881.
With `GTTGACAA` the E-score was 0.0616.
The E-score of `CGGCTGAC` is reported as 0.0604.
`GATTCTGA` has an E-score of 0.0938.
For `AACGCTCA`, the E-score was -0.214.
With `AACCCAAA` the E-score was 0.16.
With `CTCCTCCA` the E-score was 0.144.
`GGCAAACC` gave an E-score of 0.157.
With `CGATCGAA` the E-score was 0.0518.
With `CTTTCATC` the E-score was -0.0476.
The E-score of `AATCGTCG` is reported as -0.0435.
`AAATAAAT` has an E-score of 0.0899.
`AGTAATAT` gave an E-score of -0.000795.
For `CGAGGTAA`, the E-score was 0.0288.
`CATTTTCG` gave an E-score of -0.0334.
With `AGTAATGA` the E-score was 0.00936.
`CCCCGCTC` has an E-score of 0.0231.
The E-score of `GTGCTTGA` is reported as 0.117.

Series 2
Target: Interferon regulatory factor 3, full length, phosphomimetic (IRF3, Homo sapiens, UniProt Q14653, residues 1-427, S386D/S396D/S398D/S402D/T404D/S405D)
UniProt Q14653, sequence (whole entry, unmodified, looked up): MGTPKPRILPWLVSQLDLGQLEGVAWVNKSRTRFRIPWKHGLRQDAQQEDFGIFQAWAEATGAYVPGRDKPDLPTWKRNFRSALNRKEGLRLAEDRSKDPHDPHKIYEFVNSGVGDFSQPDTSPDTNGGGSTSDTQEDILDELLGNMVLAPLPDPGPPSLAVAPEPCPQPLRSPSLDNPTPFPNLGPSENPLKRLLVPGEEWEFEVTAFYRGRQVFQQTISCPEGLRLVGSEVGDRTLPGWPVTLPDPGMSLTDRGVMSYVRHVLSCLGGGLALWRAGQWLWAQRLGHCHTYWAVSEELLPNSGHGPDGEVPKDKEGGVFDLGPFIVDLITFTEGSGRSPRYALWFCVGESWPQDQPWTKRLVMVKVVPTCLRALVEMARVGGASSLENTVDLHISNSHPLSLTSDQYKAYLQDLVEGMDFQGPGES
Method: protein-binding microarray
Molecule type: double-stranded DNA, one strand shown
Medium: in vitro
Concentration: 2540 nM top
Setting: 60-bp whole probe
With: salmon DNA 0.4 mg/ml
Baseline: random background probes
Reading: higher = stronger binding
Shared flanks, not repeated: GCCTAGCAC … GTCTTGATTCGCTTGACGCTGCTG
For `GACGGTATCGACACTGGTGACGTGCTA`, “fitted relative affinity” read 0.563 z-score.
Under “fitted relative affinity”, `TTAGATTTCGGGTTTCGTTTAGTGCTA` is recorded as 3.73 z-score.
`TCAGTCTTCCCCATCTTACTGTGCTAG`: “fitted relative affinity” 1.43 z-score.
For `TCACTGCTCCTCTTTTTTACTGTGCTA`, “fitted relative affinity” read 0.278 z-score.
Under “fitted relative affinity”, `TTAGAACTGAGTTTCGATTTGTGCTAG` is recorded as 4.44 z-score.
`TTAGGTTCCCTTATCCTTTAGTGCTAG`: “fitted relative affinity” 4.44 z-score.
`TTAGGTCTCCTTTTCCATTAGTGCTAG`: “fitted relative affinity” 5.02 z-score.
`GGTCTTCTGGGCTGTTTAGTCGTGCTA`: “fitted relative affinity” -0.0112 z-score.
For `TTAGGTATCGACCCTGGGTTAGTGCTA`, “fitted relative affinity” read -0.206 z-score.
`TTAGGTATCGGGTATCGCTTAGTGCTA` — result for “fitted relative affinity”: 1.4 z-score.
`GACGAAATGGGGACTGGAGACGTGCTA`: “fitted relative affinity” -0.377 z-score.
`GTCTGTTTGGGTCTTGTCTGGTGCTAG`: “fitted relative affinity” 0.245 z-score.
`TTAGAACTGAATTTCGATTAGTGCTAG`: “fitted relative affinity” 0.784 z-score.
For `ATTGCTTTCTCTTTCACTGCGTGCTAG`, “fitted relative affinity” read 3.77 z-score.
Under “fitted relative affinity”, `GACGAACTGAGCCTCGAGACGTGCTAG` is recorded as -0.508 z-score.
`GACGGACTGGACTATCCGGACGTGCTA`: “fitted relative affinity” 0.0249 z-score.
`CTAGGTTTCCTTTTCCTTTAGTGCTAG` — result for “fitted relative affinity”: 11.8 z-score.
Under “fitted relative affinity”, `GACGGTCTCCTTATGCTGACGTGCTAG` is recorded as 2.05 z-score.
`GACGGTATCGGTATCCGGACGTGCTAG`: “fitted relative affinity” 5.05 z-score.
`TTGAATCTCCCATTATATTTGTGCTAG`: “fitted relative affinity” 0.755 z-score.
For `TTAGGATTGGACTATCGGTTAGTGCTA`, “fitted relative affinity” read -0.00857 z-score.
`TTAGATATCAGGACTGGATTAGTGCTA` — result for “fitted relative affinity”: 0.27 z-score.
For `GACGATATCAGACTGGAGATGTGCTAG`, “fitted relative affinity” read 0.175 z-score.
`GACGATATCTGTTTCGAGACGTGCTAG` — result for “fitted relative affinity”: 2.5 z-score.
Under “fitted relative affinity”, `GACGGTTTCGCTTTCGGGACGTGCTAG` is recorded as 8.03 z-score.

Series 3
Target: Prothrombin, mature alpha-thrombin (F2, Homo sapiens, UniProt P00734)
Method: aptamer microarray, sandwich
Molecule type: DNA with 2'F-ANA
Medium: in vitro
Concentration: 200 nM
Setting: whole 15-mer aptamer, many near background
With: Cy3 exosite-II aptamer, 400 nM
Reading: higher = stronger binding
Sequence: GGTTGGTGTGGTTGG
`2'F-ANA at 1 2 7 8 9 10 11 12 15` — result for “mean fluorescence intensity”: 65.9 a.u.
For `2'F-ANA at 2 8 11 12 13`, “mean fluorescence intensity” read 603 a.u.
For `2'F-ANA at 1 4 5 12 13 14`, “mean fluorescence intensity” read 44.9 a.u.
Under “mean fluorescence intensity”, `2'F-ANA at 4 5 6 8 9 11 13 15` is recorded as 80.7 a.u.
For `2'F-ANA at 1 3 7 10 11 15`, “mean fluorescence intensity” read 79 a.u.
`2'F-ANA at 1 2 7 8 9 10 11 14`: “mean fluorescence intensity” 44.6 a.u.
`2'F-ANA at 7 9 10 13 15` — result for “mean fluorescence intensity”: 189 a.u.
Under “mean fluorescence intensity”, `2'F-ANA at 6 13 15` is recorded as 366 a.u.
`2'F-ANA at 1 2 4 7 8 11 12 14 15` — result for “mean fluorescence intensity”: 75.9 a.u.
Under “mean fluorescence intensity”, `2'F-ANA at 3 4 6 9 11 12 13 15` is recorded as 449 a.u.
For `2'F-ANA at 4 6 7 8 9 10 11 12 13 15`, “mean fluorescence intensity” read 79.2 a.u.
Under “mean fluorescence intensity”, `2'F-ANA at 1 4 7 10 12` is recorded as 57.6 a.u.
`2'F-ANA at 1 3 5 10 13` — result for “mean fluorescence intensity”: 44.9 a.u.
Under “mean fluorescence intensity”, `2'F-ANA at 2 5 8 9 10 12 13 15` is recorded as 47.9 a.u.
`2'F-ANA at 1 2 3 8 12` — result for “mean fluorescence intensity”: 582 a.u.
`2'F-ANA at 2 6`: “mean fluorescence intensity” 447 a.u.
For `2'F-ANA at 1 2 3 8 10 12 15`, “mean fluorescence intensity” read 162 a.u.
Under “mean fluorescence intensity”, `2'F-ANA at 3 4 5 6 7 8 15` is recorded as 96.4 a.u.
For `2'F-ANA at 2 3 7 8 9 11 12 15`, “mean fluorescence intensity” read 912 a.u.
`2'F-ANA at 1 6 7 10 11 14`: “mean fluorescence intensity” 44.1 a.u.
Under “mean fluorescence intensity”, `2'F-ANA at 2 3 4 5 9 10 11 13 15` is recorded as 53.4 a.u.
`2'F-ANA at 4 5 11` — result for “mean fluorescence intensity”: 57.6 a.u.
For `2'F-ANA at 2 3 4 7 10 12 13 14 15`, “mean fluorescence intensity” read 178 a.u.
`2'F-ANA at 6 8 11 12 13 14 15` — result for “mean fluorescence intensity”: 180 a.u.
`2'F-ANA at 2 4 9 12 13 14` — result for “mean fluorescence intensity”: 114 a.u.

Series 4
Target: CCNA2, cyclin fold, Cln2 fusion (human)
Method: yeast growth competition, sequencing
Medium: yeast
Setting: weak parent motif
Baseline: not given
Reading: higher = stronger binding
Starting sequence: DNAH7 docking peptide (human); HELFQRLDFDNDG
For `HELFQRLDFDNDA [G13A]`, “normalised enrichment score” read -0.0792.
For `HELFQRLDADNDG [F9A]`, “normalised enrichment score” read -0.526.
Under “normalised enrichment score”, `HALFQRLDFDNDG [E2A]` is recorded as 0.682.
Under “normalised enrichment score”, `HELFQRLDFANDG [D10A]` is recorded as -0.0717.
Under “normalised enrichment score”, `HELFQRADFDNDG [L7A]` is recorded as -0.519.
`HELFQRLDFDNAG [D12A]`: “normalised enrichment score” 0.138.
Under “normalised enrichment score”, `HELFARLDFDNDG [Q5A]` is recorded as -0.0294.

Some of these lines once more (series 2):
`GTCTGTTTGGGTCTTGTCTGGTGCTAG`: “fitted relative affinity” 0.245 z-score.
`TTAGAACTGAATTTCGATTAGTGCTAG`: “fitted relative affinity” 0.784 z-score.
For `ATTGCTTTCTCTTTCACTGCGTGCTAG`, “fitted relative affinity” read 3.77 z-score.
Under “fitted relative affinity”, `GACGAACTGAGCCTCGAGACGTGCTAG` is recorded as -0.508 z-score.
`GACGGACTGGACTATCCGGACGTGCTA`: “fitted relative affinity” 0.0249 z-score.
`CTAGGTTTCCTTTTCCTTTAGTGCTAG` — result for “fitted relative affinity”: 11.8 z-score.
